Published values gathered from unrelated publications.
Each numbered part is a random draw from the data of one study; scales do not carry over between parts.

Study 1 — technique: universal PBM; molecule type: double-stranded DNA, one strand shown; matrix: in vitro; concentration: 600 nM; reading: higher = stronger binding; measurement: E-score
Target: Sal-like protein 4, full length isoform A (SALL4, Homo sapiens, UniProt Q9UJQ4, residues 1-1053)
Sequence of UniProt Q9UJQ4 (whole entry, looked up): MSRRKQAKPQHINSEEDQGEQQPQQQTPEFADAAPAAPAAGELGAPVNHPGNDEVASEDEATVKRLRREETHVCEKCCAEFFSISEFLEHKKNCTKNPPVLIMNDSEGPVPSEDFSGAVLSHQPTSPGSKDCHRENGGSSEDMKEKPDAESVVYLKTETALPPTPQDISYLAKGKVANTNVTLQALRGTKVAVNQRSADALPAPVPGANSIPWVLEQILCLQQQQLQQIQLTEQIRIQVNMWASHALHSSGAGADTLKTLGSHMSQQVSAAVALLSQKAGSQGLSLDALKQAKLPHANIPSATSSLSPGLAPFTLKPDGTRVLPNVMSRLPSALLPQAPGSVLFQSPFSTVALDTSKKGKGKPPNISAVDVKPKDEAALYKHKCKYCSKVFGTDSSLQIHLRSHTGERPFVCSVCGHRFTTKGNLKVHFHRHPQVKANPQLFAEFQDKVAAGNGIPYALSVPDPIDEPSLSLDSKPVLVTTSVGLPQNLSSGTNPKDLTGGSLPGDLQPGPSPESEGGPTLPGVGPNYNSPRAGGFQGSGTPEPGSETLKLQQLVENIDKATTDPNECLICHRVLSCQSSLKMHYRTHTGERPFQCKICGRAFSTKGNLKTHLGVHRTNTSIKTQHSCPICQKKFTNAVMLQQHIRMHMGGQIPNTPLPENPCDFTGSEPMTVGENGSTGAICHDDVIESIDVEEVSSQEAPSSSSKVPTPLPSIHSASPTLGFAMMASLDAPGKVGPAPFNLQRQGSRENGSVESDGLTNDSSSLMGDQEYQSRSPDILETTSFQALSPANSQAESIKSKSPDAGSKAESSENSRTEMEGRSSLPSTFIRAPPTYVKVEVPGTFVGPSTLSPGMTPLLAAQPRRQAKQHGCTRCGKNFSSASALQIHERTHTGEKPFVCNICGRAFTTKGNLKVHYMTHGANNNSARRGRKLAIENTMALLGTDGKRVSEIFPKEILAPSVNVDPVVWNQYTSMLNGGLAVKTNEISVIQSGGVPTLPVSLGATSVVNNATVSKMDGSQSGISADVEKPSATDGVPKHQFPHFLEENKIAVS
Setting: 8-mer, flanks averaged, mean of replicates
CAAACAGC: 0.0252
GTTTCATA: 0.313
AGGATCTA: -0.0662
GTACTCTA: 0.0398
GGAGCCTA: -0.151
AGAGCTAT: -0.0813
GGACCGAC: -0.344
AAGTGCGG: -0.0293
AACTGAGG: 0.0881
ACAGTCAT: 0.13
TAAATTAA: 0.324
GGTACGAC: -0.237
AATCGGCC: -0.236
ACCCCTTA: -0.0335
GCGCGCCA: -0.127
ACCTGTAT: 0.146
AAGGTCAT: 0.0567
AAGGCTCG: -0.169
CTACTGGA: -0.21
CCCAGCCG: -0.341
GAACCTTA: -0.0499
CGGGGCCA: -0.421
CAATTCAA: 0.164
ATACTCGA: 0.144
ATGGCTCG: -0.138

Study 2 — technique: RNA Bind-n-Seq; molecule type: RNA; matrix: in vitro; concentration: 200 nM; setting: whole 134-nt RNA, ends assumed; together with: 150 mM KCl; baseline: input library; reading: higher = stronger binding; measurement: log2 enrichment
Target: Ras GTPase-activating protein-binding protein 1, full length (G3BP1, Homo sapiens, UniProt Q13283)
Sequence of UniProt Q13283 (whole entry, looked up): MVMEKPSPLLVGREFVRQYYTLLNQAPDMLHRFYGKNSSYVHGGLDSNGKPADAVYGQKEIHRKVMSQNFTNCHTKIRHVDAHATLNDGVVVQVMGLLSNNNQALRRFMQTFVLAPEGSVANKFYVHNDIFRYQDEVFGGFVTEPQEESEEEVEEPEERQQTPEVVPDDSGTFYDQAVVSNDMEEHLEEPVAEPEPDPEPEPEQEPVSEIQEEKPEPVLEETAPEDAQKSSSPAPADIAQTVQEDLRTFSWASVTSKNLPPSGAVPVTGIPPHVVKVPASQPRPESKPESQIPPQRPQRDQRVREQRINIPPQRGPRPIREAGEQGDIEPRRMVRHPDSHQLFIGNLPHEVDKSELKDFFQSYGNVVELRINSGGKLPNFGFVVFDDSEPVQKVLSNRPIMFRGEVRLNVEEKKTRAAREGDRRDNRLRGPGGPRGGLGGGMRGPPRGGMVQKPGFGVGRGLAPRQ
Constant ends, left off below: GGGAGUUCUACAGUCCGACGAUC … UGGAAUUCUCGGGUGUCAAGG
CUGUGCUACACAUCGUAUGUACCGAAUCGGAAAAAAAGGAAAAAAAGGGGAAAAAAAGGGGAAAGUAUUAUGUUACGCCGUUCGGAUCUG: -0.821
CAAGUCCUGUGCUACACAUCGUAUGUACCGAAUCGGUUUUGGGUUUUGGUUUUGGGAAAGUAUUAUGUUACGCCGUUCGGAUCUGCACUU: -1.11
UAACUUUAGAGGAGGAUCUGAUGGAUAUGGCAGUGGACGUGGAUUUGGGGAUGGCUAUAAUCGGUAUGGAGGAGGACCUGGAGGUGGCAA: 0.144
UUCCUCAAGUCCUGUGCUACACAUCGUAUGUACCGAAUCGUGUGUGUGUGUAAAGUAUUAUGUUACGCCGUUCGGAUCUGCACUUCCAGC: -0.413
UGGGACGUGGAUUUUGUUUAUUUUUUUAGCUCAUUUCCAGGGGUGGGAAUUUUUUUUUAAUAUGUGUCAUGAAUAAAGUUGUUUUUGAAA: -0.427
ACCAUGCAGGUGGGCAUCAAAGGGAAGUGGGGCAAGGGGGGGAUAGGGAGGGGGGUAACACUUUGGGAACAGGUGGUCCCAGGUCGUUUC: 1.11
GUCCUGUGCUACACAUCGUAUGUACCGAAUCAAAUUUUUUUAAACCCCCAAACCCAAAAAAGUAUUAUGUUACGCCGUUCGGAUCUGCAC: -0.282
UGGGAGGUGGAUUUUGUUUAUUUUUUUAGCUCAUUUCCAGGGGUGGGAAUUUUUUUUUAAUAUGUGUCAUGAAUAAAGUUGUAUUUGAAA: -0.0186
UCCUCAAGUCCUGUGCUACACAUCGUAUGUACCGAAUCGGAGGGAGGGAGGAAAGUAUUAUGUUACGCCGUUCGGAUCUGCACUUCCAGC: -0.213
CUCAAGUCCUGUGCUACACAUCGUAUGUACCGAAUCGGUGGGGUGGGGUGGGGAAAGUAUUAUGUUACGCCGUUCGGAUCUGCACUUCCA: 1.06
UCAAGUCCUGUGCUACACAUCGUAUGUACCGAAUCGGGUUUGGUUUGGUUUGGGGAAAGUAUUAUGUUACGCCGUUCGGAUCUGCACUUC: -0.792
UUCCUCAAGUCCUGUGCUACACAUCGUAUGUACCGAAUCGGAGGAGGAGGAAAGUAUUAUGUUACGCCGUUCGGAUCUGCACUUCCAGCA: -0.972
GCAGGAAGUAAAAACAACUGGAAAUGCUUCGGAUAGUGGCAGGGGUGGGGGUUGCUAAGGAAAGGGUGGGAUGGGAGUGGGUAAAGAGUU: 1.07
UCCUGUGCUACACAUCGUAUGUACCGAAUCGGGGUUUUUGGGGUUUUUUUGGGGAGGGGAAAGUAUUAUGUUACGCCGUUCGGAUCUGCA: 0.698

Study 3 — technique: protein-binding microarray; molecule type: double-stranded DNA, one strand shown; matrix: in vitro; concentration: 250 nM; setting: 60-bp whole probe; together with: salmon DNA 0.4 mg/ml; baseline: random background probes; reading: higher = stronger binding; measurement: log fluorescence; constant ends, left off below: GCCTAGCAC … GTCTTGATTCGCTTGACGCTGCTG
Target: Interferon regulatory factor 5, full length, phosphomimetic (IRF5, Homo sapiens, UniProt Q13568-2, residues 1-514, K96S/S451D/S453D/S456D/S462D)
TACGGTATCGACTTTCGGGACGTGCTA: 6.74 z-score
TTAGCTCTCAGTCTCGATTAGTGCTAG: 0.927 z-score
GACGATTTCGGGACTGGAGAGGTGCTA: 1.65 z-score
GATCCTTCCCCTCTAGGTTCGTGCTAG: -0.0535 z-score
GGTGGGGTGCAGCAGGGCCAGTGCTAG: -0.924 z-score
TTAGCACTGCTTATCCTTTAGTGCTAG: -0.168 z-score
TTAGGACTGGACTATAGGTTAGTGCTA: -0.256 z-score
CTAGATTTCGGGACTGGATTAGTGCTA: 2.1 z-score
TTAGGACTGGGTTGCGGTTAGTGCTAG: 0.242 z-score
GACAAACTGGGGACTGGAGACGTGCTA: -0.39 z-score
GACGGGCTGGGGACTGGGGACGTGCTA: -0.632 z-score
GACGCTTTCGGACTGGGGACGTGCTAG: 5.22 z-score
TTAGATATCGGGTTTCGATGAGTGCTA: 6.39 z-score
TTAGGTTTCGGTATCGGTCAGTGCTAG: 11.3 z-score
TTAGAACTGAGTCTCGCTTAGTGCTAG: 0.245 z-score
GACGGTATCAACTATCGGGACGTGCTA: 2.17 z-score
GACGATTTCAGACTGGATACGTGCTAG: 0.0697 z-score
GACGGTTTCTACTATCGGGACGTGCTA: 3.34 z-score
TTCACTTTCCAAAACATGAAGTGCTAG: 1.42 z-score
TTCAGTCCCCTCTTCTGGATGTGCTAG: 0.101 z-score
TCAAGAATAATTTTTTAGACTGTGCTA: 0.552 z-score
GACGGTTTCGGTATCGGGACGTGCTAG: 9.96 z-score
TTATTTAGGATAGAACTATAGTGCTAG: 0.301 z-score
TTAGGACTGGACTATCGGTAAGTGCTA: 3.97 z-score
CCACTTTCAGTTCTCCCTTTGTGCTAG: 7.96 z-score

Study 4 — technique: competition protein-binding microarray; molecule type: double-stranded DNA, one strand shown; matrix: in vitro; concentration: 2 µM; together with: Cbf1 competitor, 0.05 µM; reading: higher = stronger binding; measurement: fluorescence intensity; constant ends, left off below: … GTCTTGATTCGCTTGACGCTGCTG
Target: Phosphate system positive regulatory protein PHO4, full length, GST-tagged (PHO4, Saccharomyces cerevisiae, UniProt P07270, residues 1-312)
Setting: whole 60-bp probe, lowest competitor level
Target sequence (chain): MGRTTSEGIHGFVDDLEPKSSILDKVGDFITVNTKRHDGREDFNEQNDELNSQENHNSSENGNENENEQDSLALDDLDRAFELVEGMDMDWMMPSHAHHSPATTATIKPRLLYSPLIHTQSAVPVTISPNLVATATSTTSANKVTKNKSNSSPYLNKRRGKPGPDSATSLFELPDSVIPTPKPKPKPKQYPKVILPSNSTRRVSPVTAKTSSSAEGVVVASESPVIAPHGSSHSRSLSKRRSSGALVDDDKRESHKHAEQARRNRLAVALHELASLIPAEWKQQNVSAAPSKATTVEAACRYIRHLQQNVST
GCTGCCAAGAAAAAGCACGTGTAACAATGGAATGAT: 18100 a.u.
CCCAGACCCACCCAGATCGTGATGGTTGTTACCATC: 5690 a.u.
CTGCCTTTATTTATTACCGTGCCAGACAAAGGGGCT: 4900 a.u.
AAAAGCAACTCGACCGTCGTGGGTACAAACCCCACC: 7160 a.u.
CCCGCGGGTCGCTATCACGATTCAGCACCCTTTGGA: 4600 a.u.
CATACCCAACCTTGCTAAGTGGGTGAAGATATTTGT: 3640 a.u.
ATAGTTCGTGTACAGGCCGTGATGGTCATCTAATTT: 5400 a.u.
ACAACGGGGAACCGCACCGTGATGGCACCTAGCCCA: 5250 a.u.
AAATTACTAAGTTGTCACCATACTTACCCCGTATGA: 4160 a.u.
GGTGGTTATGGCTGGGTCGTGACGAACTGTGTGTTC: 7000 a.u.
AGGGCTCAGAACCTGCAGGTGAAGAAGCGCTTTAGA: 3290 a.u.
CATACCCAACCTTGTCACTACACTTAAGATATTTGT: 3980 a.u.
TCTTTCATTAATCGCCACCTGATGTTTTTCGCTGCT: 3970 a.u.
CTTTCCCGATCTTTTCACGTGTTATTAGCACATTTG: 14000 a.u.
CTTTCCCGATCTTGAGGCGTGGGTGTAGCACATTTG: 8850 a.u.
ATGGACAATAACGACCACGTGGGTAACGCAATGACT: 21300 a.u.
CATACCCAACCTTTTCACGTGTTATAAGATATTTGT: 17500 a.u.
ACAATCGCATAATCGCACGTATATACAGGCACACAA: 6360 a.u.
TAAGTCATTAAGCGTCATGCCAGGTTTTCTTGGAAG: 4490 a.u.
TGCCCTTCGCAAAGCACCGTGCTTTTAATGGCAATC: 7020 a.u.
CTTCTGTAAATTTGATGTGTGGGTGGACGCGCCCCG: 5840 a.u.
CGGGGTTAAGTTTGTCACAAGACTTGCTTGCAGCAG: 4250 a.u.
TAACCCACCTTGGGCCACGTGGAAACCAGGGGCCAG: 15900 a.u.
CGTCCTAGTGATTGGGCCGTGGGTGCCATGAGGAAG: 7730 a.u.
CGGGGTTAAGTTTGCACAGTGGGTGGCTTGCAGCAG: 5220 a.u.

Study 5 — technique: protein binding microarray; molecule type: double-stranded DNA, one strand shown; matrix: in vitro; concentration: not given; baseline: not given; reading: higher = stronger binding; measurement: E-score
Target: Histone acetyltransferase KAT6A, winged helix 1, GST fusion (KAT6A, Homo sapiens, UniProt Q92794, residues 1-85)
Setting: 8-mer, flanks averaged, mean of 2 arrays, mostly near background
Target sequence (chain): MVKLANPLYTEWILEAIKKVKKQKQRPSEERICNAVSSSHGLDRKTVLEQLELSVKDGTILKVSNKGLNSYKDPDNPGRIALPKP
ACCCCACA: -0.277
CGTATGTC: 0.158
TACGCGAA: 0.233
CTACGACA: -0.153
CGGGCTGA: 0.236
ATGCACTG: -0.328
AGTATCAT: -0.0903
CATCACAC: -0.147
CCGAAGTC: 0.101
GCTTCGGA: 0.0603
GTACGGAA: 0.26
CATATCCC: 0.0198
GTGCCACA: -0.152
ACGCGAGG: 0.11
TGCCGGAA: 0.151
ATTGTCCA: -0.142
ATTGGACG: -0.0771
CGGTAGAC: 0.217
TCAACAGA: -0.0867
GTCGCCTA: 0.137
AGCGTACA: 0.00959
TAAACTAA: -0.22
CGGTACCG: 0.41
AATTAGCG: 0.229
CCCGGCAC: 0.242

Excerpt of the above (study 4):
AAAAGCAACTCGACCGTCGTGGGTACAAACCCCACC: 7160 a.u.
CCCGCGGGTCGCTATCACGATTCAGCACCCTTTGGA: 4600 a.u.
CATACCCAACCTTGCTAAGTGGGTGAAGATATTTGT: 3640 a.u.
ATAGTTCGTGTACAGGCCGTGATGGTCATCTAATTT: 5400 a.u.
ACAACGGGGAACCGCACCGTGATGGCACCTAGCCCA: 5250 a.u.
AAATTACTAAGTTGTCACCATACTTACCCCGTATGA: 4160 a.u.
GGTGGTTATGGCTGGGTCGTGACGAACTGTGTGTTC: 7000 a.u.
AGGGCTCAGAACCTGCAGGTGAAGAAGCGCTTTAGA: 3290 a.u.
CATACCCAACCTTGTCACTACACTTAAGATATTTGT: 3980 a.u.
TCTTTCATTAATCGCCACCTGATGTTTTTCGCTGCT: 3970 a.u.
CTTTCCCGATCTTTTCACGTGTTATTAGCACATTTG: 14000 a.u.
CTTTCCCGATCTTGAGGCGTGGGTGTAGCACATTTG: 8850 a.u.
ATGGACAATAACGACCACGTGGGTAACGCAATGACT: 21300 a.u.
CATACCCAACCTTTTCACGTGTTATAAGATATTTGT: 17500 a.u.
ACAATCGCATAATCGCACGTATATACAGGCACACAA: 6360 a.u.
